# Assay results of several laboratories.
# “And” joins repeats or separate records; there may be more than shown.
# Target: MAP kinase-activated protein kinase 2 (MAPKAPK2, Homo sapiens, UniProt P49137)
SMILES,assay,conditions,how to read,quantity,value
Cc1cccc(O[C@H]2CCC[C@@H](C(C)CNCc3ccncc3)C2)c1 (relative stereo),"enzyme activity, inhibitor",1 µM,,inhibition,2%
Cc1nc2c(F)cc(-c3nc(Nc4ccc(CNC(=O)CCCCCCC(=O)NO)cc4)ncc3F)cc2n1C(C)C,"enzyme activity, inhibitor",1 µM,,inhibition,13%
Cc1ccc(-c2c(/C=C(\C#N)C(=O)NC(C)C)n(CCCO)c3ncnc(N)c23)cc1,"cell-free assay, competition with immobilised ligand",1 µM,,remaining binding,74%
CN1CC[C@@H](COc2cnc(C#N)cc2-c2ccn3nc(NC(=O)C4CC4)cc3c2)C1,"enzyme activity, inhibitor",1 µM,,inhibition,15%
NC(=O)C[C@H]1CCc2sc3ncnc(O[C@H]4CC[C@H](N5CCOCC5)CC4)c3c21,"enzyme activity, inhibitor",10 µM,,inhibition,1%
O=C=[N][Ru-4]123([n]4c5ccc(O)cc5c5c6c(c7cc(F)c[n+]1c7c54)C(=O)NC6=O)[S+]1CC[S+]2CC[S+]3CC1 (stereo not shown),enzyme activity,"100 nM, human enzyme, added: 10 µM ATP",relative to: untreated,remaining activity,115%
Nc1ncc(-c2cc(-c3cnn(CC(F)(F)F)c3)ncc2F)nc1C(=O)NC1CNCC(F)C1 (stereo not shown),enzyme activity,1 µM,relative to: DMSO control,remaining activity,99.4%
COc1c(Cl)cccc1Nc1c(-c2ccncc2C#C[C@@]2(C)CCCN2C(=O)/C=C/CN(C)C)[nH]c2c1C(=O)NCC2,"binding, competition with immobilised ligand",3 µM,,remaining binding,100%
Cc1cccc(-c2ccc3nc(NC(=O)C4CCCO4)nn3c2)c1 (stereo not shown),"enzyme activity, Dundee kinase panel",10 µM,,remaining activity,95%
COc1ccc(NC(=O)Nc2ccc3c(c2)C(=O)N(C(C)CO)CC(C)C(CN(C)Cc2ccc4c(c2)OCO4)O3)cc1 (stereo not shown),"kinase activity, KinaseProfiler","0.03 µM, species human",relative to: control,remaining activity,96%
CN1CCN(Cc2ccc(-c3ccc(CO[C@H]4CCC[C@@H]4NC(=O)c4cc(-c5cnn(C)c5)cnc4N)cc3)cc2)CC1,"enzyme activity, inhibitor",0.1 µM,,inhibition,3% and 8%
CC(=O)N1c2ccc(-c3ccc(CNC(=O)c4cn5cc(-c6cnc(N)nc6)nc(N6CCOCC6)c5n4)cc3)cc2CC[C@@H]1C,KINOMEscan,10 µM,,remaining binding,100%
CNC(=O)C1CCN(c2cc(C)c(F)cc2NC(=O)c2ccc(-c3cc(O)ccc3C)c(C)c2)CC1,"binding, competition with immobilised ligand",1 µM,,remaining binding,96%
CNS(=O)(=O)Nc1nccc(Cc2c(C)c3ccc(Oc4ncccc4F)cc3oc2=O)c1F,"binding, competition with immobilised ligand",10 µM,,remaining binding,100%
COc1cc(Nc2nccc(-c3cnn4nc(OC)ccc34)n2)cc(C(F)(F)F)c1,"binding, competition with immobilised ligand",1 µM,,remaining binding,100%
Cc1cccc(-c2ccc3nc(NC(=O)C4CCCCC4)nn3c2)c1,"enzyme activity, Dundee kinase panel",10 µM,,remaining activity,105%
CN1CCN(Cc2ccc(NC(=O)c3cccc(C#Cc4cnc(N)c5ncccc45)c3)cc2C(F)(F)F)CC1,"cell-free assay, competition with immobilised ligand",0.5 µM,,remaining binding,100%
CCn1cc(C(=O)O)c(=O)c2c(N)c(F)c(NC3CCCCC3)cc21,kinase activity,"0.1 µM, added: ATP at Km",,inhibition,1.8%
Nc1nc(Nc2ccccc2)sc1C(=O)c1ccccc1,"enzyme activity, inhibitor",10 µM,,remaining activity,98%
O=C(Cc1ccc(OCc2ccccc2)cc1)NC1(C(=O)O)CCN(C(=O)c2ccc(-c3cccc(Cl)c3)cc2)CC1,"enzyme activity, inhibitor",10 µM,,activity vs control,106%
C=CC(=O)Nc1cccc(-c2cnc3[nH]cc(C(=O)NC(C)(C)C)c3n2)c1,kinase activity,0.1 µM,,inhibition,3% and 9%
CCN1CCN(Cc2ccc(C(=O)Nc3ccc(C)c(NCc4cnc5[nH]ccc5c4OC)c3)cc2C(F)(F)F)CC1,"binding, competition with immobilised ligand",1 µM,,remaining binding,100%
